# Measurements from different studies.
# Parts stem from different laboratories: compare values within a part only. Changes are numbered by the printed parent chain.

# Sample 1
# Target: RNA binding protein fox-1 homolog 2, RRM domain, GST-SBP tag (RBFOX2, Homo sapiens, UniProt O43251-10, residues 100-194)
# Method: RNA Bind-n-Seq
# Form: RNA
# Sample: in vitro
# Tested at: 365 nM
# Setting: natural RNA segment, single round, ends assumed
# Baseline: no-protein control
# Direction: higher = stronger binding
# Shared flanks, not repeated: GGGAGUUCUACAGUCCGACGAUC … UGGAAUUCUCGGGUGCCAA
# Target sequence (chain): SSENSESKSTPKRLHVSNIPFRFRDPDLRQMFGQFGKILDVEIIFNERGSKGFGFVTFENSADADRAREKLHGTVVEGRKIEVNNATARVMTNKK
Oligonucleotide,RBNS enrichment (R)
GUGAACGCCAGCGGCGGCCGACUUCUAUCCCAAGCACUGCGCAAAAGCAGAGGAACGGAAAGGGAAAGGGCCAGGUCAUCCUCAGCCACAUAGUGAGUCCAAGGUCGGCC,0.243
ACUCUAGGAUGAAGGCCUUGAAUAUCGAUCGCUGCCAGUCCCUAAUAAGACUUUCCCUGCCAACCAGGACAGCCUGGACCAUGCCUGCCUGUUCACUGUUUCAGGCUGCU,0.512
CCCUUAACCCUUGCCUCUAUUACCUAAGCUUAGUAAGUAGUUUUCUUAAUAUUGUCCAAUGUUUGGUGUUAUCUGCAUUGUUUUUUGUUUUUUUAAUUGUGGUUGUUCUG,1.76
AUGUAGCAAUUUUUUCCUAAACACAAAAUGGCCUUUUGCUUGUCUGGUAAUGAGAUUGUAAAUCCAUUUCCUGCGUGUGUUCUCCGCAGGCUUGCCUGAGUGUGUGGGGU,0.528
UUCAUGUGUAAUAGCUCAAAUGGAAUAAGCAUGAAUGCUGGAGUGGACCAUUAUCCUCAAAUAUUCUAUGUCACUUCUCAUUUAAAGACUCUUGUUAUGAACUAUUAGAA,1.24
AGCAUGCACGUGAAAAUAGAAAGGUAAUUUAACAACACACAGACACCCAGAGACUUGGUCUCUGCAUGUGUGUAGAAGUAGUGGUGUGGGGAGGGAUGGGACUCACUCAG,16.2
AUCUACAUAGCUUUCUCUCUCCAGUGCCUCUACUACGUGAGGGAGGCCCAUGGCAUUGUGGUGACGGAUGUGGCCUUUCUACCUGAGAAGGGUCGUGGUCCAGAGCUCCU,0.23
GUGGCUCUGGCUGACGCUAAUCCUACAGCUCCCCAUUUUCUGAGAGACCAAGAACCAUGAUCAUUGCCUGCUGAAUCGGCCAGGGCCUGGCCACUCUGUGAAUACAUGAU,2.72
UCAAGGUUAACCUCUUUAGAAAAGAUUAGUAAAGGAGAUCCCGAAUGAUAGAAGAUAGAAAGACUAUUGCCUAGAAAUAUGAGACUGAGUUUUGAAACAGAAACCAGUAC,0.429
CCCAGGAACUGUUCAGAAAUCUCAGAAGAAAUCUGCUUCUCUUCGAUGGAAAGAUAUAAUUAACGAUCAAAGAGCUCUAAGAAAAUUGCAAAGAAGCCUUAAUGUUCAAG,0.779
CAAAAAGUGGUGCUGAGGGACUCCUAAGUCGGCCGUAGCACCUCGAGCCCUGGGCUUUGAAGGCAGCCUUAGGACAAACUCCUCUGCCUAAGGCAUCAUGCCUCAGCCCC,0.57
UCAUACUAUUGAGAGAGAAGUUAUAAGAAAUGCAUUUCAAAAUUUGGUCCCGAAUUCCAAAAUCCCAAUUGUGGCCAUUUUAGUUCUUGCCAUCCUAUUCUUGGCUCAUC,0.66

# Sample 2
# Target: RING finger protein unkempt homolog, zinc fingers 1-6, GST-SBP tag (UNK, Homo sapiens, UniProt Q9C0B0, residues 30-357)
# Method: RNA Bind-n-Seq
# Form: RNA
# Sample: in vitro
# Tested at: not given
# Setting: RNA with constant flanks, ends assumed
# Baseline: input RNA pool
# Direction: higher = stronger binding
# Shared flanks, not repeated: GGGAGUUCUACAGUCCGACGAUC … CAACAGAGGAUUGAGCAUCA
# Residues (chain): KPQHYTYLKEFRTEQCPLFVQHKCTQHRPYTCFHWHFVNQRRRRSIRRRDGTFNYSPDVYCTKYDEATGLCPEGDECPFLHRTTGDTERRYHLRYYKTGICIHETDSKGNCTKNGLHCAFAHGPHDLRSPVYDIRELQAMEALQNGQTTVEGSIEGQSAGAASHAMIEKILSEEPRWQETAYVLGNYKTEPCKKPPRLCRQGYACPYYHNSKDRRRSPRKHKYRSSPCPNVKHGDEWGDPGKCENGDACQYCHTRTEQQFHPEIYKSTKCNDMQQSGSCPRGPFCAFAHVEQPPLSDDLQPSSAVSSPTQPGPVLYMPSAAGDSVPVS
Oligonucleotide,bound/input enrichment
GAAGGGCUAUCUUUCUAUUCACAUCAAACCUUUUGUUGCGUGUUUCUGUUUUUUAAUACUUCCGGGUUCUGAUUUGUGGGAACAGACCUUGUAAAUAACCACUGUUCACAUGUGUGGCAG,0.479 ratio
AUGAUGAAGCUAUCAGAAGAAAAUCGGCACCUGAGAGAUGAAGGUUUAAGGCUCAGAAAGGCCGCACAUUCGGAUAAACCUGGAUCAACCUCAACUGCAUCCUUCAGAGAUAAUGUCACC,0.0679 ratio
UAUAAUAAUCAUGAAAUUCGUUCCGGGAAGCACAUUGGUGUCUGCAUCUCAGUUGCCAACAACCGGCUUUUUGUGGGCUCGAUUCCUAAGAGUAAAACCAAGGAGCAGAUUCUUGAGGAA,0.19 ratio
UUUCAGUGAAGUGGAGUUACUCCAAGUGAAACGCUGUUUUCUGGUUUUAGCCAAACUGCAAUCCGAUGUGUCUUUGCAAUCUAAAAGUUGUACACAAUCAACAAUACACUUUGCUUACUC,0.0784 ratio
CGGGUCGGAGAUUAUGUCUACUUUGAGAAUUCCUCCAGCAACCCAUACCUAAUAAGAAGGACCGAAGAACUCAACAAGACUGCAAGUGGCAACGUGGAAGCAAAAGUAGUAUGCUUUUAU,0.804 ratio
AGUAAGACCAUGAAUUAUGGCAUUUCUUAAAUGAAGCGUUCAAGAAGUGAGAGAAUGUCACCGAAAAUAAAUGAUUUUUAAGUUAUGUCUAUUAAUCUGACUGUAGAUAUAUAUAUUUAC,0.483 ratio
AACCAAUCAAAAACCACUCCUUUUAAAGAUUGCAAAGUAUUAAAACAAAGGCCAAGGUUUGCCGCCCUGAAGAAGCAGCCAUCCUAUAUUGGAGGACAUGAGGGCUUAGAAUUAAGAGAU,1.08 ratio
CUCCAUUUCUUCCCAUGCUGUAACCCCAGGCUCCACCAGCUGUUCCCCAGUGAUGUUACCCCGCUUCCCUCUACCGUUGUCUACUGACCAUUUCCACUACAUGCCUUUCCUACCUUCCCU,0.585 ratio
AAGCUAUAAUGAGUUUUUCUAAAUUAAGGGAACUCUGCUACUUCCUUUUUUUUUUUUUUUAACCGUUGGUCUACAAGUGCGCAUUGGUAGGGUGUCCAGCAGAUGGAUGGGGGCUGAUGG,1.18 ratio
GAAGGCAGCAAAAGGCACAGGUCAAGAAGCAGGUCACGAUCUCGGACCAGAAGUUCCUCCCGGUCCCGUAGCCGAUCCCGUUCACGAAGGAGCAAGUCUUACAGCCGAUCAAGGAGCAGG,0.0629 ratio
GAAAAUUUGCAUGCAGCAGCUUACCGGAAUGCCUUGGCUAAUCCCUUGUAUUGUCCUGACUACCGGAUUGGAAAAGUGACAUCAGAGGAGUUACAUUACUUCGUUCAGAACCAUUUCACA,0.272 ratio

# Sample 3
# Target: Ras GTPase-activating protein-binding protein 1, RRM domain (G3BP1, Homo sapiens, UniProt Q13283)
# Sequence of UniProt Q13283 (whole entry, looked up): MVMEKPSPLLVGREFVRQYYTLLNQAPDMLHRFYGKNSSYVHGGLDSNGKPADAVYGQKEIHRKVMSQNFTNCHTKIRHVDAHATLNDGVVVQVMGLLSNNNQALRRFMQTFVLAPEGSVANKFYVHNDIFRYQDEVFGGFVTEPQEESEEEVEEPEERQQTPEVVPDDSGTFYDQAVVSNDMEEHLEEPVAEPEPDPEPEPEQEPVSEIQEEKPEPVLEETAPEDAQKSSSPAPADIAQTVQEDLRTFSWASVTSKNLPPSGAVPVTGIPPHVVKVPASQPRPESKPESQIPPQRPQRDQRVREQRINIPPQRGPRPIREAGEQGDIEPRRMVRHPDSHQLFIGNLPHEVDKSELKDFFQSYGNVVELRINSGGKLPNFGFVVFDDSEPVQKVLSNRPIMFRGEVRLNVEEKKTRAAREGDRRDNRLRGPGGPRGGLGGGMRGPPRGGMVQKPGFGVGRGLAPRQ
# Method: RNA Bind-n-Seq
# Form: RNA
# Sample: in vitro
# Tested at: 1 µM
# Setting: whole 134-nt RNA, ends assumed
# Together with: 150 mM KCl
# Baseline: input library
# Direction: higher = stronger binding
# Shared flanks, not repeated: GGGAGUUCUACAGUCCGACGAUC … UGGAAUUCUCGGGUGUCAAGG
Oligonucleotide,log2 enrichment
GCAGGAAGUAAAAACAAAUGGAAAUGCUUCGGAUAGUGGCAGGGGUGGGGGUUGCUAAGGAAAGGGUGGGAUGGGAGUGGGUACAGAGUU,0.498
AGUCCUGUGCUACACAUCGUAUGUACCGAAUCGGGGAAAAAAAGGGGAGGGGUGGGGAAAGUAUUAUGUUACGCCGUUCGGAUCUGCACU,0.821
UGGCCCUGGUGGCAUGCGGGGAGGAAGAGGUGGCCUCAUGGAUAGUGGUGGUCCCGGUGGAAUGUUCAGAGGUGGCCGUGGUGGAGACAG,1.07
UGUGCUACACAUCGUAUGUACCGAAUCGGGGAAAAAGGGGAAAAAAAGGGGUUUUUUUGGGGAAAGUAUUAUGUUACGCCGUUCGGAUCU,1.38
CCUGUGCUACACAUCGUAUGUACCGAAUCGGGGUUUUUUUGGGGAAAGGGGUUUUUGGGGAAAGUAUUAUGUUACGCCGUUCGGAUCUGC,0.509
AGUCCUGUGCUACACAUCGUAUGUACCGAAUCGGGGUUUUUUUGGGGUGGGGUGGGGAAAGUAUUAUGUUACGCCGUUCGGAUCUGCACU,0.528
UCCUGUGCUACACAUCGUAUGUACCGAAUCGGGUUUUUGGGAAAAAAAGGGAAAAAGGGAAAGUAUUAUGUUACGCCGUUCGGAUCUGCA,-0.0309
UAGCUAAACUAAUGUCAACUUAUUUCCUUUUUUCCUUUAGCCACCAUCAAAGAACAGACGAGAGAGAACAGAACUGAAGCCUGAUUUCUU,-0.409
UGGCCCUGGUGGCAUGCGGGGAGGAAGAGGUGGCCUCAUGGAUCGUGGUGGUCCCGGUGAAAUGUUCAGAGGUGGCCGUGGUGGAGACAG,0.822
AGUCCUGUGCUACACAUCGUAUGUACCGAAUCGGGGCCCCCGGCCCCCGGCCCCCGGAAAGUAUUAUGUUACGCCGUUCGGAUCUGCACU,-0.355
CACAGACAACACGAACCCACACAGACACAGAGGGAAGGGGUUGGGAUGGGGACAGGGUGCACAGCAGGGCGGGGUAGGACCCCAGCCCCU,0.229
UCCUGUGCUACACAUCGUAUGUACCGAAUCGGGGAAAAAGGGGAAAGGGGUUUUUGGGGAAAGUAUUAUGUUACGCCGUUCGGAUCUGCA,1.06
ACCAUGCAGGUGGGCAUCUUUGGGAAGUGGGACAAGGGGGGGAUAGGGAGGGGGGUAACACUUUGGGAACAGGUGGUCCCAGGUCGUUUC,-0.545
ACCGUGCAGGUGGGCAUCUUUGGGAAGUGGGGCAAGGGGGGGAUAGGGAGGGGGGUAACACUUUGGGAACAGGUGGUCCCAGGUCGUUUC,-0.618

# Sample 4
# Target: ABI1, truncated, D143A, DHFR fusion (Arabidopsis thaliana)
# Method: DHFR PCA, deep sequencing
# Sample: yeast
# Setting: methotrexate growth selection, single substitutions
# Together with: (+)-ABA 710 µM
# Baseline: wild-type fitted maximum
# Direction: higher = stronger binding
# Starting sequence: PYL1, truncated, DHFR fusion (Arabidopsis thaliana); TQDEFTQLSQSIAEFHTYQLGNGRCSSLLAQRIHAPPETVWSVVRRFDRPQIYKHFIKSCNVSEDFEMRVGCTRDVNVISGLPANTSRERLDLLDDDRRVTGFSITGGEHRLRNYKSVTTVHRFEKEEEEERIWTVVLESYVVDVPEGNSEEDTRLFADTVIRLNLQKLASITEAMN
Variant,relative binding score [%]
I57A,77.4
E130A,112
D96V,72.3
L169E,-14.9
E38A,97.5
V143D,7.18
I172E,92.3
N165G,47.5
V121N,16.7
E130F,107
P83Q,73.4
V40H,-1.96
G21R,100
A30T,103
L169D,-14.5
A158L,103
G148P,86.1

# Single results of other studies
Substance,target,test,system,setting,scale,endpoint,value
"PhoQ, residues 284 288 289 292 302 303 TGYLSA","PhoP, residues 12 14 15 18 19 MHTVL (Escherichia coli, UniProt P23836)","Sort-seq, item: YFP reporter",E. coli,"PhoQ-PhoP variant library, together with: 10 µM Mg2+","baseline: high Mg2+ state, higher = stronger signaling",fold induction,2.18

# A few entries again (sample 4):
Variant,relative binding score [%]
V121N,16.7
E130F,107
P83Q,73.4
V40H,-1.96
G21R,100
A30T,103
